Measured values collected from several papers.
Each line is one published result; not all experiments were run side by side.
Chain of UniProt Q13546 (whole entry, looked up): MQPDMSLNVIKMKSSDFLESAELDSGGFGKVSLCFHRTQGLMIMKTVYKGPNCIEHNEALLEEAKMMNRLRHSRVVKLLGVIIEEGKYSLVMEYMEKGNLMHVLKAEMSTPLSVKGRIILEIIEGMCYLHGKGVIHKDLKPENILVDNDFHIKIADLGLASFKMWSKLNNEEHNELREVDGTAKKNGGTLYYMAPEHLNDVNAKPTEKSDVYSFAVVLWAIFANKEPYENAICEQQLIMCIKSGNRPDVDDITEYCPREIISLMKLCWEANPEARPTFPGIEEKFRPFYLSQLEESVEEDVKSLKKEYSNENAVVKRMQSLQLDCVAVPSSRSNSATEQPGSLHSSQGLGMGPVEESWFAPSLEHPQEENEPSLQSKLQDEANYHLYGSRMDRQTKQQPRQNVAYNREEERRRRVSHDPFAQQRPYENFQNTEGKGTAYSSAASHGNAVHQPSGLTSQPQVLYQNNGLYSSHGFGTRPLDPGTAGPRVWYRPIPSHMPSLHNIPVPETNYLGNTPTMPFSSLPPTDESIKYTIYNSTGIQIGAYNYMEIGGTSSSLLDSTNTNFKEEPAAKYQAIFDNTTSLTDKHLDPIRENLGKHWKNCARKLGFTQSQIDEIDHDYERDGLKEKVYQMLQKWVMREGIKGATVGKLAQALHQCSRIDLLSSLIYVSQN

For `CC(C)C[C@H](NC(=O)[C@@H](NC(=O)c1ccc(-c2ccccc2)cc1)C(C)C)C(=O)N[C@H](C=O)C[C@@H]1CCCNC1=O`, the CC50 was over 100 µM (A549; cell growth or viability, MTT; 24 h).
The CC50 of `COc1ccc2cc1Oc1ccc(cc1)C[C@H]1c3cc(c(OC)cc3CCN1C)Oc1c(O)c(OC)cc3c1[C@H](C2)N(C)CC3` is reported as 46.8 µM (A549; cell growth or viability, CCK-8; 48 h).
With `CCOC(=O)C1=C(CN2CCN(Cc3cccc(B(O)O)c3)CC2)NC(c2nccs2)=NC1c1ccc(F)cc1Br` (centres unmarked) the CC50 was 30.8 µM (HepDES19; cell growth or viability, MTS; 72 h).
For `[2H]c1c([2H])c([C@]2([2H])CCCN2C(=O)C(C)(C)Oc2ccc3cn[nH]c3c2)c([2H])c([2H])c1C([2H])([2H])[2H]`, the remaining binding was 1.1% (RIPK1 (Homo sapiens, UniProt Q13546); binding, competition with immobilised ligand; 1 µM).
For `CCOC(=O)C1=C(CN2CCN(Cc3ccc(B(O)O)cc3)CC2)NC(c2nccs2)=NC1c1ccc(F)cc1Br` (centres unmarked), the CC50 was 29.4 µM (HepDES19; cell growth or viability, MTS; 72 h).
`CC(C)C[C@H](NC(=O)[C@@H](NC(=O)c1ccco1)C(C)C)C(=O)N[C@H](C=O)C[C@@H]1CCCNC1=O` gave a CC50 of over 100 µM (A549; cell growth or viability, MTT; 24 h).
The CC50 of `CCC(CC)COC(=O)[C@H](C)N[P@](=O)(OC[C@H]1O[C@@](C#N)(c2ccc3c(N)ncnn23)[C@H](O)[C@@H]1O)Oc1ccccc1` is reported as over 100 µM (Caco-2; cell growth or viability).
The CC50 of `CC[C@H]1CN2CCc3cc(OC)c(OC)cc3[C@@H]2C[C@@H]1C[C@H]1NCCc2cc(OC)c(OC)cc21` is reported as 1.92 µM (HepG2; cell growth or viability, ATP luminescence; 72 h).
With `COc1ccc2cc1Oc1ccc(cc1)C[C@H]1c3cc(c(OC)cc3CCN1C)Oc1c(OC)c(OC)cc3c1[C@H](C2)N(C)CC3` the CC50 was 55.2 µM (A549; cell growth or viability, CCK-8; 48 h).
For `C#CC[C@H](NC(=O)/C=C/c1ccccc1)C(=O)N[C@H](C=O)C[C@@H]1CCNC1=O`, the CC50 was over 100 µM (A549; cell growth or viability, MTT; 24 h).
The CC50 of `CCOC(=O)C1=C(CN2CCN(Cc3ccccc3B(O)O)CC2)NC(c2nccs2)=NC1c1ccc(F)cc1Br` (centres unmarked) is reported as over 50 µM (HepDES19; cell growth or viability, MTS; 72 h).
The CC50 of `O=c1nc(NO)ccn1[C@@H]1O[C@H](CO)[C@@H](O)[C@H]1O` is reported as over 100 µM (Calu-3; cell growth or viability).
With `CC(C)C[C@H](NC(=O)[C@@H](NC(=O)c1cccnc1)C(C)C)C(=O)N[C@H](C=O)C[C@@H]1CCCNC1=O` the CC50 was over 100 µM (A549; cell growth or viability, MTT; 24 h).
`Nc1ccn([C@@H]2CS[C@H](CO)O2)c(=O)n1` has a CC50 of over 50 µM (HepDES19; cell growth or viability, MTS; 72 h).
The CC50 of `C[N+]1=C2C=C(NCCc3ccc(O)cc3)C(=O)c3[nH]cc(c32)CC1` is reported as 0.2 µM (HepG2; cell growth or viability, MTT; 72 h).
The CC50 of `CCOC(=O)C1=C(CN2CCC[C@@H]2C(=O)Nc2cccc(B(O)O)c2)NC(c2nccs2)=N[C@H]1c1ccc(F)cc1Br` is reported as 29.8 µM (HepDES19; cell growth or viability, MTS; 72 h).
The CC50 of `CC(C)C[C@H](NC(=O)[C@@H](NC(=O)c1ccc[nH]1)C(C)C)C(=O)N[C@H](C=O)C[C@@H]1CCCNC1=O` is reported as over 100 µM (A549; cell growth or viability, MTT; 24 h).
